Measurements pooled from the literature.
Protocols differ between the studies behind these lines. Values joined by “and” are separate records of one study, mostly repeats; a detail may differ. ± gives the spread as reported.
GBA2: Beta-glucosidase (GBA2, Homo sapiens, UniProt Q9HCG7)
Sequence of UniProt Q9HCG7 (whole entry, looked up): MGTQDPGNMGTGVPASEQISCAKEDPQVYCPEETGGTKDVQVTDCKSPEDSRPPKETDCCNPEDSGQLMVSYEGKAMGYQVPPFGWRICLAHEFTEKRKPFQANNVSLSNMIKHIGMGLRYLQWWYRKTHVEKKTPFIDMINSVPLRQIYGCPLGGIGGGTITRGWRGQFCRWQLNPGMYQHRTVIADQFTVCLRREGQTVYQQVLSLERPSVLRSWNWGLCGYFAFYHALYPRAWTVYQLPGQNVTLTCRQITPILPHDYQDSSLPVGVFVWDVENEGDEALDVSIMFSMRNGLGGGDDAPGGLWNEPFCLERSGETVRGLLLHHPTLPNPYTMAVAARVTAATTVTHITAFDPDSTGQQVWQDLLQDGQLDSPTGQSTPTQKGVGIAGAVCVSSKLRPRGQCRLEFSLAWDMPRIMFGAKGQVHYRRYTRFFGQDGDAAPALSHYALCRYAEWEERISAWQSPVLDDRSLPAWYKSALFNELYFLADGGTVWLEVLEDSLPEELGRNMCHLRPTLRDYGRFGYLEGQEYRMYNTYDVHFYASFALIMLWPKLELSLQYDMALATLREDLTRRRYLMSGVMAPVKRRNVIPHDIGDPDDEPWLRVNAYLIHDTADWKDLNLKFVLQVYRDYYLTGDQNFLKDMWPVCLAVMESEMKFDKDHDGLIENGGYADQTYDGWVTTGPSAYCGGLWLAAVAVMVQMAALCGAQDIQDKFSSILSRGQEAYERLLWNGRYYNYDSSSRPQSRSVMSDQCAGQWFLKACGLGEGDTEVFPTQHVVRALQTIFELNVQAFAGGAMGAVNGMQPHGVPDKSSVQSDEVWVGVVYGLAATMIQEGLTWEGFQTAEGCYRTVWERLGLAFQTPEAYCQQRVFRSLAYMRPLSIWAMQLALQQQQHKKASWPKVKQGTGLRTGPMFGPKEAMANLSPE
CASP3: Caspase-3 (CASP3, Homo sapiens, UniProt P42574)
Sequence of UniProt P42574 (whole entry, looked up): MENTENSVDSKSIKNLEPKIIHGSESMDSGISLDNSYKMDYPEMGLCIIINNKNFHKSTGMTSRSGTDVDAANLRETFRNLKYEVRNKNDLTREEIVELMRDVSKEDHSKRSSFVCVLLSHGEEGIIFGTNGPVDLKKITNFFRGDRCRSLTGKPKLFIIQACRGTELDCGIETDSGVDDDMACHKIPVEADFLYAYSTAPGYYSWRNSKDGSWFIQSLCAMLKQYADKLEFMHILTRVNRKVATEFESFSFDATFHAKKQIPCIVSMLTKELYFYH
B4GALT1: Beta-1,4-galactosyltransferase 1 (B4GALT1, Homo sapiens, UniProt P15291)
Sequence of UniProt P15291 (whole entry, looked up): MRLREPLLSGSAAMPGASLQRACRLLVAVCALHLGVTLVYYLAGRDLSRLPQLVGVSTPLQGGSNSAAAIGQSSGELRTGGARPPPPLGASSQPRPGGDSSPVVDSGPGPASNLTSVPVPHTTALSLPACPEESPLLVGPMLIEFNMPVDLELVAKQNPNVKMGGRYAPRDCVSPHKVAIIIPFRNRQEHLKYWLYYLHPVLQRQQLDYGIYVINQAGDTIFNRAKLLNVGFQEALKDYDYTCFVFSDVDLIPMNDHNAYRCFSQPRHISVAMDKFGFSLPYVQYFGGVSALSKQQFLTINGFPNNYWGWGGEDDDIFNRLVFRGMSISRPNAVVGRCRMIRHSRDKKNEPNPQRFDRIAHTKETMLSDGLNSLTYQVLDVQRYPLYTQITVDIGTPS
T1: hairpin RNA, UUCG tetraloop capped P1; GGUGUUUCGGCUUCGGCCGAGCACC
T2: neomycin riboswitch RNA U14C, pseudouridine at 13; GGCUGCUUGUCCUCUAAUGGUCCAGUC
T3: hairpin RNA, hairpin; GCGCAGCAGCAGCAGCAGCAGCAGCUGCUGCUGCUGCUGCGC
Sequence of UniProt P34972 (whole entry, looked up): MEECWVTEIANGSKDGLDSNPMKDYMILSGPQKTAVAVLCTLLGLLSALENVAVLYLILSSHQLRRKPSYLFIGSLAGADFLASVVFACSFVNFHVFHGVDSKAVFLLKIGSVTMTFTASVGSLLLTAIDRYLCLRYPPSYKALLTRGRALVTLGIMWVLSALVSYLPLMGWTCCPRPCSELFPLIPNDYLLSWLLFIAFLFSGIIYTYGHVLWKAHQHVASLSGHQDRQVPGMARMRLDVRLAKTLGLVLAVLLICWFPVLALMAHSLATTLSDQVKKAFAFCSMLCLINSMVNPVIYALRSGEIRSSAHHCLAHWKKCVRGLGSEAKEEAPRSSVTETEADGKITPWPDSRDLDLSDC
Sequence of UniProt Q53HC9 (whole entry, looked up): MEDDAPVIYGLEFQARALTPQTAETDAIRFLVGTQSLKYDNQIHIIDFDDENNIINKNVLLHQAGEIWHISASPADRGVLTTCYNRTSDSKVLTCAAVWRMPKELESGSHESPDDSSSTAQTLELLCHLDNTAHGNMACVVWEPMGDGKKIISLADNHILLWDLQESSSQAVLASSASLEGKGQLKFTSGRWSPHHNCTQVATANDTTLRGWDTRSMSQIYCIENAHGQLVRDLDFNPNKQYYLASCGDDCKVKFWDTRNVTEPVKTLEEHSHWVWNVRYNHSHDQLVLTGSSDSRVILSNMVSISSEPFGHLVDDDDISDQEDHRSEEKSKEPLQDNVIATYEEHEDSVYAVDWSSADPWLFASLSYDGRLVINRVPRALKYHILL
Sequence of UniProt P04756 (whole entry, unmodified, looked up): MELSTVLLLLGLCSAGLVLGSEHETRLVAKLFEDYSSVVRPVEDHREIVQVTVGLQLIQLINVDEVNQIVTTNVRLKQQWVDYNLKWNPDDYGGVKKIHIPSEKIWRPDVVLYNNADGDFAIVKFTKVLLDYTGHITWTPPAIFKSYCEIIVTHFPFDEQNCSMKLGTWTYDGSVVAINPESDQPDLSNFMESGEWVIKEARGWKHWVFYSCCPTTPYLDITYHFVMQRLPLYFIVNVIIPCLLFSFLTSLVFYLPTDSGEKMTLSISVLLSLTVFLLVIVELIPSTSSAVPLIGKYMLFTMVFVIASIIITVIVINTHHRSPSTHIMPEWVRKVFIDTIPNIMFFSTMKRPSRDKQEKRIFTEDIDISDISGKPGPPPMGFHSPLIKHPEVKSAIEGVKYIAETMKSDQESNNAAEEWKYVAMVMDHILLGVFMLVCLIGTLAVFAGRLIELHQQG
Sequence of UniProt Q03431 (whole entry, looked up): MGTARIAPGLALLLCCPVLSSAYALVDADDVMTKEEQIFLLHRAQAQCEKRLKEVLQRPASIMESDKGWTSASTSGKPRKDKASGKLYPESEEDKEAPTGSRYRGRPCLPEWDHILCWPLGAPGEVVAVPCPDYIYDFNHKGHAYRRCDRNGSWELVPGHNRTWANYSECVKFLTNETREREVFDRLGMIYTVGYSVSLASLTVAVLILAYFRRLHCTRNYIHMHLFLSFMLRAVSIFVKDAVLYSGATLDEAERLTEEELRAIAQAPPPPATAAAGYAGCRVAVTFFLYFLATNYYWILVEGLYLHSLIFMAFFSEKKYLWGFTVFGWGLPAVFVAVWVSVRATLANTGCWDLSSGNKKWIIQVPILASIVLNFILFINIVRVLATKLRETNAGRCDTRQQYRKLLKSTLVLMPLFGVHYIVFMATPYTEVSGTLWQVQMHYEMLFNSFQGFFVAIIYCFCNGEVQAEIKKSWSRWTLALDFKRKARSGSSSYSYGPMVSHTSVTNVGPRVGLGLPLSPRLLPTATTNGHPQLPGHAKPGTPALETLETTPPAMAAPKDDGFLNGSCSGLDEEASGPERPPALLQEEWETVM
Sequence of UniProt P48039 (whole entry, looked up): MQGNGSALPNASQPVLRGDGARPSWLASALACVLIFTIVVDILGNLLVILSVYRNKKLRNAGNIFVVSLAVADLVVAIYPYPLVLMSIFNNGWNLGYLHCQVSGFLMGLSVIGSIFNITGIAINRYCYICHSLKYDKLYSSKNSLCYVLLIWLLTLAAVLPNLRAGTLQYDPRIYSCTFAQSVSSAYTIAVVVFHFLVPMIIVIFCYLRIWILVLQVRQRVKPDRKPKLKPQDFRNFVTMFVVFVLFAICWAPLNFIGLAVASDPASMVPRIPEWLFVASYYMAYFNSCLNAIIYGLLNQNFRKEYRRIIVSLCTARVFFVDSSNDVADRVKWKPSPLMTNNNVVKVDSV
Sequence of UniProt P49720 (whole entry, looked up): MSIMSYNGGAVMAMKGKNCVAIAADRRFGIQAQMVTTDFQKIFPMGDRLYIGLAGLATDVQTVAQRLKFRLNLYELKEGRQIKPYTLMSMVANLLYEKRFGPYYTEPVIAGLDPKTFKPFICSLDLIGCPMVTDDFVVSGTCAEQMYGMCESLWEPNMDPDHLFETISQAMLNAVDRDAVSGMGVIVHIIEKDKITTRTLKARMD
Sequence of UniProt P06748 (whole entry, looked up): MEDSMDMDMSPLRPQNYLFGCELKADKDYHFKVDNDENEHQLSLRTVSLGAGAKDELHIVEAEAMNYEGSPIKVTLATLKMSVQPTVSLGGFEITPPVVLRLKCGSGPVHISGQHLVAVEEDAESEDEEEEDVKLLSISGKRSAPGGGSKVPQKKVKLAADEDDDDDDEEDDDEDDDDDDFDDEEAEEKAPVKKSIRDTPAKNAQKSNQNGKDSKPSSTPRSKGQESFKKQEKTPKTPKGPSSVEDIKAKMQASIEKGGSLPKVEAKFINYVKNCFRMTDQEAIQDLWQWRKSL
Sequence of UniProt Q5VWZ2 (whole entry, looked up): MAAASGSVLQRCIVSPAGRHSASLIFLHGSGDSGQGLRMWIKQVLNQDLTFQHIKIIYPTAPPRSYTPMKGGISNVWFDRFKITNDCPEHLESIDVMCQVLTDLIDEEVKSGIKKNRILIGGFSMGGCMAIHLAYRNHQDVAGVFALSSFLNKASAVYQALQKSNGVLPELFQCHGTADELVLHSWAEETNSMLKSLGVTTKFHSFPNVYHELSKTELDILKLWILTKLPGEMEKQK
Sequence of UniProt Q99436 (whole entry, looked up): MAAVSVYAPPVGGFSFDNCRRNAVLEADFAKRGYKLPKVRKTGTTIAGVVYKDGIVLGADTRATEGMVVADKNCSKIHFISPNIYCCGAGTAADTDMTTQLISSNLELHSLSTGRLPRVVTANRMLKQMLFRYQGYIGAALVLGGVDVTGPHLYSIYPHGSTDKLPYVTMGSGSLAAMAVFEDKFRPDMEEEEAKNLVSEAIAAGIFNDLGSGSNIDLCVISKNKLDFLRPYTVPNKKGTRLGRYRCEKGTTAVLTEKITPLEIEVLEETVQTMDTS

The selectivity ratio of `OC[C@@H]1[C@@H](O)[C@H](O)[C@@H](O)CN1CCCCCOCc1ccccc1-c1ccccc1` is reported as 417 (GBA2; inhibitor, 4MU-β-D-glucopyranoside; HEK293T homogenates overexpressing GBA2; reference: GBA1 IC50 over GBA2 IC50).
`COc1ccc2[nH]c(Br)c(CCNC(C)=O)c2c1` gave an Emax of 101% (MTNR1A (Homo sapiens, UniProt P48039); β-arrestin recruitment, agonist; CHO-K1; 90 min).
`CCCCCNC(=O)C1C(O)C(O)C(O)C(CO)N1CCCC` (centres unmarked) has a selectivity ratio of 1250 (GBA2; inhibitor, 4MU-β-D-glucopyranoside; HEK293T homogenates overexpressing GBA2; reference: GBA1 IC50 over GBA2 IC50).
For `CC(=O)N[C@@H](CC(C)C)C(=O)N[C@@H](CCC(N)=O)C(=O)N[C@@H](CO)C(=O)N[C@@H](CC(=O)O)C(=O)COC(=O)c1c(C)cccc1C`, the kinact/KI was 28800 M⁻¹ s⁻¹ (CASP3; enzyme activity, inhibitor).
With `N#CN1CC[C@H](C(=O)Nc2nc3c(s2)CN(C(=O)Cn2cc(CNC(=O)CCCC[C@@H]4SC[C@@H]5NC(=O)N[C@@H]54)nn2)CC3)C1` the iBAQ abundance was 4.4e+09 (PARK7 (Homo sapiens, UniProt Q99497); probe binding, affinity probe, neutravidin pull-down LC-MS/MS; HEK293T, cell lysate; 5 µM, 1 h, mean of three replicates, unit not given; higher = more pulled down).
The selectivity ratio of `OC[C@@H]1[C@@H](O)[C@H](O)[C@@H](O)CN1CCCCCOCc1ccc(-c2ccc3c(c2)OCO3)cc1` is reported as 250 (GBA2; inhibitor, 4MU-β-D-glucopyranoside; HEK293T homogenates overexpressing GBA2; reference: GBA1 IC50 over GBA2 IC50).
`C=CC(=O)N1CCCC(n2c(=O)c3ncccc3n(Cc3ccc(Oc4ccccc4)cc3)c2=O)C1` (centres unmarked) gave a melting temperature of 47.9 °C and 46.8 °C (EARP and GARP complex-interacting protein 1 (EIPR1, Homo sapiens, UniProt Q53HC9); thermal proteome profiling, item: EIPR1; treated).
With `CC(=O)N[C@H](C(=O)N[C@@H](CCC(=O)O)C(=O)N[C@@H](C)C(=O)N[C@@H](CC(=O)O)C(=O)COC(=O)c1c(C)cccc1C)C(C)C` the kinact/KI was 306000 M⁻¹ s⁻¹ (CASP3; enzyme activity, inhibitor).
With `Cc1cc(C(=O)N2Cc3ccccc3CC2C(=O)O)cc(=O)[nH]1` (centres unmarked) the luminescence was 59000 a.u. (B4GALT1; enzyme activity, inhibitor, UDP-Glo; 10 µM; lower means stronger inhibition).
The cAMP inhibition of `O=C1C[C@H](c2nc(-c3ccc(F)c4cn[nH]c34)no2)CCCN1c1ccc(F)cc1` (racemic) is reported as 9.71% and 24.6% and 16.6% (CNR2 (Homo sapiens, UniProt P34972); agonist, GloSensor cAMP; CHO expressing CB2; 10 nM).
For `NC[C@H]1O[C@H](O[C@H]2[C@H](O)[C@@H](O[C@H]3O[C@H](CO)[C@@H](O)[C@H](N)[C@H]3O)[C@H](N)C[C@@H]2N)[C@H](N)C[C@@H]1O`, binding read “binds weakly” (T1, hairpin RNA, UUCG tetraloop capped P1; 1H NMR titration; added: KCl 50 mM).
For `CC(=O)N[C@@H](CC(=O)O)C(=O)N[C@@H](CO)C(=O)N[C@H](C(=O)N[C@@H](CC(=O)O)C(=O)COC(=O)c1c(C)cccc1C)C(C)C`, the kinact/KI was 2.62e+06 M⁻¹ s⁻¹ (CASP3; enzyme activity, inhibitor).
For `Cc1cnc(Nc2ccc3c(c2)CCN(C(=O)/C=C/C(=O)c2ccc(Cl)cc2)C3)nc1-c1cnn(C(C)C)c1`, the selectivity ratio was > 73.2 (JAK2 (Homo sapiens, UniProt O60674); ADP-Glo kinase; reference: IC50 JAK1 over IC50 JAK2).
With `CC(C)C[C@H](NC(=O)[C@H](Cc1ccccc1)NC(=O)[C@H](CCONC(=N)N)NC(=O)[C@H](C)N)B(O)O` the selectivity ratio was ≥ 20 fold (Proteasome subunit beta type-3/PSMB7 (Homo sapiens, UniProt P49720+Q99436); inhibitor; human constitutive proteasome; 5 nM; reference: β5 over β2 potency).
The Kd of `NC[C@H]1O[C@H](O[C@H]2[C@H](O[C@@H]3O[C@H](CO)[C@@H](O)[C@H]3O)[C@@H](O)[C@H](N)C[C@@H]2N)[C@H](N)[C@@H](O)[C@@H]1O` is reported as 977 nM (T2, neomycin riboswitch RNA U14C, pseudouridine at 13; ITC; pH 6.8, 37 °C, read off a plot).
With `Cc1cc(CC(C)NC(=O)c2cc(=O)[nH]c3ccc(F)cc23)[nH]n1` (centres unmarked) the luminescence was 92000 a.u. (B4GALT1; enzyme activity, inhibitor, UDP-Glo; 100 µM; lower means stronger inhibition).
`Nc1nc(SCc2ccc(Cl)cc2)nn1S(=O)(=O)c1ccc(-c2ccccc2)s1` — result for “probe labeling increase”: 1.8 fold (LYPLAL1 (Homo sapiens, UniProt Q5VWZ2); enzyme activity, activator, gel-based ABPP; purified protein; concentration not given, added: FP-rhodamine; reference: DMSO).
The kinact/KI of `CC(=O)N[C@H](C(=O)N[C@@H](CCCCN)C(=O)N[C@@H](CCC(N)=O)C(=O)N[C@@H](CC(=O)O)C(=O)COC(=O)c1c(C)cccc1C)C(C)C` is reported as 9100 M⁻¹ s⁻¹ (CASP3; enzyme activity, inhibitor).
The selectivity ratio of `OC[C@@H]1[C@@H](O)[C@H](O)[C@@H](O)CN1CCCCCOCc1ccc(-c2ccc(Cl)cc2)cc1` is reported as 13 (GBA2; inhibitor, 4MU-β-D-glucopyranoside; HEK293T homogenates overexpressing GBA2; reference: GCS IC50 over GBA2 IC50).
`Cc1ccc(CN)cc1` has a kcat of 48 ± 0.3 min⁻¹ (Maoa (Rattus norvegicus, UniProt P21396); substrate; rat; pH 9.0, α,α-protio substrate).
For `C[N+]1(C)CCCC1`, the kon was 1.62e+07 M⁻¹ s⁻¹ (Chrnd/Chrna1/Chrne (Mus musculus, UniProt P02716+P04756+P20782, G173S/S470W); binding, single-channel kinetics; cell-attached patch; AChR wild type, S chain side).
`N=C(N)NCCC[C@H](NC(=O)[C@@H]1CCCN1C(=O)[C@H](CCCNC(=N)N)NC(=O)[C@@H]1CCCN1C(=O)[C@H](CCCNC(=N)N)NC(=O)[C@@H]1CCCN1C(=O)[C@H](CCCNC(=N)N)NC(=O)[C@@H]1CCCN1C(=O)[C@H](CCCNC(=N)N)NC(=O)[C@@H]1CCCN1C(=O)[C@H](CCCNC(=N)N)NC(=O)[C@@H]1CCCN1C(=O)[C@H](CCCNC(=N)N)NC(=O)[C@@H]1CCCN1C(=O)[C@H](CCCNC(=N)N)NC(=O)[C@@H]1CCCN1C(=O)[C@H](CCCNC(=N)N)NC(=O)[C@@H]1CCCN1C(=O)[C@H](CCCNC(=N)N)NC(=O)[C@@H]1CCCN1C(=O)[C@H](CCCNC(=N)N)NC(=O)[C@@H]1CCCN1C(=O)[C@H](CCCNC(=N)N)NC(=O)[C@@H]1CCCN1C(=O)[C@H](CCCNC(=N)N)NC(=O)[C@@H]1CCCN1C(=O)[C@H](CCCNC(=N)N)NC(=O)[C@@H]1CCCN1C(=O)[C@H](CCCNC(=N)N)NC(=O)[C@@H]1CCCN1C(=O)[C@H](CCCNC(=N)N)NC(=O)[C@@H]1CCCN1C(=O)[C@H](CCCNC(=N)N)NC(=O)[C@@H]1CCCN1C(=O)[C@H](CCCNC(=N)N)NC(=O)[C@@H]1CCCN1C(=O)[C@H](CCCNC(=N)N)NC(=O)[C@@H]1CCCN1C(=O)[C@H](CCCNC(=N)N)NC(=O)[C@@H]1CCCN1C(=O)[C@H](CCCNC(=N)N)NC(=O)[C@@H]1CCCN1C(=O)[C@H](CCCNC(=N)N)NC(=O)[C@@H]1CCCN1C(=O)[C@H](CCCNC(=N)N)NC(=O)[C@@H]1CCCN1C(=O)[C@H](Cc1ccc(O)cc1)NC(=O)[C@H](CO)NC(=O)CN)C(=O)O` gave a complex mass of ≤ 1.5 MDa (Nucleophosmin (NPM1, Homo sapiens, UniProt P06748); analytical ultracentrifugation; 20 °C, 4-fold molar excess).
With `C=CCn1c(N2CCN(CCc3ccccc3)CC2)nc2c1c(=O)[nH]c(=O)n2C` the luminescence was 87400 a.u. (B4GALT1; enzyme activity, inhibitor, UDP-Glo; 100 µM; lower means stronger inhibition).
With `CC(C)[C@@H]1NC(=O)[C@H](Cc2ccccc2)NC(=O)CSC[C@@H](C(N)=O)NC(=O)[C@H](CCC(=O)O)NC(=O)[C@H](CO)NC(=O)[C@H](Cc2c[nH]c3cccc(Cl)c23)NC(=O)[C@H](C2CCCCC2)NC(=O)[C@H](C(C)C)NC(=O)[C@H](Cc2ccc(O)cc2)NC(=O)[C@H](CC(=O)O)NC(=O)[C@H](Cc2c[nH]c3ccccc23)NC(=O)[C@H](Cc2ccc(N)nc2)NC(=O)[C@H](Cc2c[nH]c3ccc(Cl)cc23)NC(=O)[C@H](CCC(=O)O)NC1=O` the remaining activity was 86.5% (Interleukin-1 receptor-like 2 (IL1RL2, Homo sapiens, UniProt Q9HB29); reporter gene (SEAP), inhibitor, HEK-Blue IL-36R reporter; HEK-Blue IL-36R cells; 0.14 µM, 6 h, added: IL-36β 0.3 ng/mL).
`CCCCCC=CC=C1C(=O)C=CC1CC=CCCCC(=O)O` (centres unmarked) — result for “isoTOP-ABPP competition ratio”: 5 (DYNC1LI1 (Homo sapiens, UniProt Q9Y6G9); competitive isoTOP-ABPP; Ramos soluble proteome; 100 µM, 60 min, added: iodoacetamide probe; reference: DMSO over compound-treated, higher = stronger cysteine blockade).
For `Cc1cnc2nc1Nc1cccc(c1)COC/C=C/COCc1cc(ccc1OCCN1CCOCC1)N2`, “percent of control” read 100% (CIT (Homo sapiens, UniProt O14578); concentration not given).
`C#CCCC1(CCC(=O)NCC2CCN(c3c(F)cc4c(=O)c(C(=O)O)cn(CC)c4c3F)C2)N=N1` (centres unmarked): binding “binds weakly” (T3, hairpin RNA, hairpin; gel after photo-cross-linking; covalent).
`O=C(Nc1ccccc1C(=O)N1CCOCC1)C(C(F)(F)F)C(F)(F)F`: IC50 “inactive” (Chymotrypsinogen A (Bos taurus, UniProt P00766); enzyme activity, inhibitor).
The selectivity ratio of `CC(C)(C)COCCOCCN1C[C@H](O)[C@@H](O)[C@H](O)[C@@H]1CO` is reported as 5240 (GBA2; inhibitor, 4MU-β-D-glucopyranoside; HEK293T homogenates overexpressing GBA2; reference: GCS IC50 over GBA2 IC50).
For `CCCCCCCCCCCCCCCC(=O)NCCCC[C@H](NC(=O)[C@H](CCC(=O)O)NC(=O)[C@H](Cc1ccc(O)cc1)NC(=O)[C@H](CCC(=O)O)NC(=O)COCC(=O)NCCCOCCOCCOCCCNC(=O)[C@H](Cc1c[nH]c2ccccc12)NC(=O)[C@H](CCCCN)NC(=O)[C@H](C)NC(=O)[C@H](CCCCNC(=N)N)NC(=O)[C@H](CCC(N)=O)NC(=O)[C@H](Cc1c[nH]cn1)NC(=O)[C@H](CCSC)NC(=O)[C@H](CC(C)C)NC(=O)[C@H](CCC(N)=O)NC(=O)[C@@H](NC(=O)[C@H](CCC(=O)O)NC(=O)C(C)(C)NC(=O)[C@@H](NC(=O)C(C)(C)N)C(C)C)[C@@H](C)CC)C(=O)N[C@@H](CCC(=O)O)C(=O)N[C@@H](Cc1ccc(O)cc1)C(=O)N[C@@H](CCC(=O)O)C(N)=O`, “cAMP luminescence AUC” read 88.3 a.u. (PTH1R (Homo sapiens, UniProt Q03431); agonist; Saos-2 with cAMP reporter; 31.6 nM, 30 min, ligand-on phase; higher = more cAMP).
For `Cc1ccc(-c2ccc(COCCCCCN3C[C@H](O)[C@@H](O)[C@H](O)[C@H]3CO)cc2)cc1`, the selectivity ratio was 83 (GBA2; inhibitor, 4MU-β-D-glucopyranoside; HEK293T homogenates overexpressing GBA2; reference: GBA1 IC50 over GBA2 IC50).
With `CC[C@H](C)[C@H](NC(=O)[C@@H](N)CCCCN)C(=O)N1CCC[C@H]1C(=O)N[C@@H](Cc1ccc(O)cc1)C(=O)N[C@@H](Cc1ccccc1)C(=O)N[C@@H](Cc1c[nH]cn1)C(=O)N[C@@H](C)C(=O)NCC(=O)NCC(=O)N[C@@H](CO)C(=O)N[C@@H](CCCCN)C(=O)N[C@@H](CS)C(=O)N[C@@H](CO)C(=O)N[C@H](C(=O)N[C@@H](Cc1c[nH]c2ccccc12)C(=O)N1CCC[C@H]1C(=O)N[C@@H](CC(C)C)C(=O)N1CCC[C@H]1C(=O)N[C@@H](CCC(N)=O)C(=O)N1CCC[C@H]1C(=O)N[C@@H](CO)C(=O)O)[C@@H](C)OP(=O)(O)O` the ΔG was -39.2 ± 0.5 kJ/mol (YWHAZ (Homo sapiens, UniProt P63104); ITC; 37 °C, one-set-of-sites model).

Some of these lines once more:
For `Cc1cnc(Nc2ccc3c(c2)CCN(C(=O)/C=C/C(=O)c2ccc(Cl)cc2)C3)nc1-c1cnn(C(C)C)c1`, the selectivity ratio was > 73.2 (JAK2 (Homo sapiens, UniProt O60674); ADP-Glo kinase; reference: IC50 JAK1 over IC50 JAK2).
`Nc1nc(SCc2ccc(Cl)cc2)nn1S(=O)(=O)c1ccc(-c2ccccc2)s1` — result for “probe labeling increase”: 1.8 fold (LYPLAL1 (Homo sapiens, UniProt Q5VWZ2); enzyme activity, activator, gel-based ABPP; purified protein; concentration not given, added: FP-rhodamine; reference: DMSO).
The selectivity ratio of `OC[C@@H]1[C@@H](O)[C@H](O)[C@@H](O)CN1CCCCCOCc1ccccc1-c1ccccc1` is reported as 417 (GBA2; inhibitor, 4MU-β-D-glucopyranoside; HEK293T homogenates overexpressing GBA2; reference: GBA1 IC50 over GBA2 IC50).
With `Cc1cc(C(=O)N2Cc3ccccc3CC2C(=O)O)cc(=O)[nH]1` (centres unmarked) the luminescence was 59000 a.u. (B4GALT1; enzyme activity, inhibitor, UDP-Glo; 10 µM; lower means stronger inhibition).
